Assay results gathered from unrelated publications.
Protocols differ between the studies behind these lines. “And” joins repeats or separate records; there may be more than shown. ± marks the error that the study gave.

`O=C1NC2(CC2)COc2ncc(F)cc2[C@H]2COCCN2c2ccn3ncc1c3n2` — result for “serum hepatic lipase activity”: 3.4 ± 0.6 U/L (Sprague-Dawley rat, female, serum; oral, 2.5 mg/kg/day, end of recovery, 4-week subacute toxicity).
For `CN1Cc2cc(Cl)ccc2-n2c(nnc2C2CCN(c3cccc([18F])n3)CC2)C1`, the tissue uptake was 3.71 ± 2.76 %ID/g (C57BL/6 mouse male, thymus; intravenous, dose not given, 30 min, together with: blocking agent 10 mg/kg).
`CSCC[C@H](NC(=O)[C@@H](NC(=O)[C@H](CC(C)C)NC(=O)[C@@H](NC(=O)[C@H](Cc1c[nH]cn1)NC(=O)CCCCCNC(=O)[C@H](CCCNC(=N)N)NC(=O)[C@H](CCCNC(=N)N)NC(=O)[C@H](CCCNC(=N)N)NC(=O)[C@H](CCC(N)=O)NC(=O)[C@H](CCCNC(=N)N)NC(=O)[C@H](CCCNC(=N)N)NC(=O)[C@H](CCCCN)NC(=O)[C@H](CCCCN)NC(=O)[C@H](CCCNC(=N)N)NC(=O)CNC(=O)[C@@H](N)Cc1ccc(O)cc1)C(C)C)C(C)C)C(=O)N[C@@H](CS)C(=O)N[C@@H](C)C(=O)N[C@H](C(N)=O)[C@@H](C)O` gave an MCH of 14.2 pg and 14.8 pg and 13.8 pg (C57BL/6J mice; Alzet osmotic pump, 3 mg/kg, 8 weeks).
The monocytes of `CC(C)[C@@H]1NC(=O)CNC(=O)[C@H](CC(N)=O)NC(=O)[C@H](CCCNC(=N)N)NC(=O)[C@H](Cc2ccc(O)cc2)NC(=O)[C@H](C(C)C)NC(=O)[C@@H](NC(=O)[C@@H](NC(=O)[C@H](CC(N)=O)NC(=O)[C@H](Cc2c[nH]c3ccccc23)NC(=O)[C@H](C)NC(=O)[C@H](Cc2ccccc2)NC(=O)CNC(=O)[C@H](CCCCN)NC(=O)[C@H](Cc2ccccc2)NC(=O)[C@H](Cc2ccccc2)NC(=O)[C@H](CCCCN)NC(=O)OCC2c3ccccc3-c3ccccc32)C(C)C)CSSC[C@@H](C(=O)N[C@@H](Cc2c[nH]cn2)C(=O)N[C@@H](CCCNC(=N)N)C(=O)N[C@@H](CCCNC(=N)N)C(=O)N[C@@H](C)C(=O)N[C@@H](CC(N)=O)C(N)=O)NC(=O)[C@H](C(C)C)NC(=O)[C@H](CCCNC(=N)N)NC1=O` is reported as 2.94 ± 0.16% (ICR mice, blood; intraductal mammary, 5 mg/kg, day 5).
`CCCC[C@H]1C(=O)N(C)[C@@H](CCCC)C(=O)N[C@@H](CCCNC(=O)CN2CCN(CC(=O)O)CCN(CC(=O)O)CCN(CC(=O)O)CC2)C(=O)N[C@H](C(=O)NCC(N)=O)CSCC(=O)N[C@@H](Cc2ccc(O)cc2)C(=O)N(C)[C@@H](C)C(=O)N[C@@H](CC(N)=O)C(=O)N2CCC[C@H]2C(=O)N[C@@H](Cc2c[nH]cn2)C(=O)N[C@@H](CC(C)C)C(=O)N(C)CC(=O)N[C@@H](Cc2c[nH]c3ccccc23)C(=O)N[C@@H](CO)C(=O)N[C@@H](Cc2c[nH]c3ccccc23)C(=O)N1C` [gallium-68 labelled] gave a tissue uptake of 1.66 ± 0.19 %ID/g (NOD/SCID mice, CHO-hPD-L1 xenograft, pancreas; 60 min, PBS pretreatment).
For `N#[11C]c1ccc(-c2csc(NN=C3CCCC3)n2)cc1`, the radioactivity uptake was 1.12 ± 0.17 %ID/g (C57BL/6 mice, male, heart; intravenous, 3 MBq, 60 min).
`C#Cc1c(F)ccc2cc(O)cc(-c3ncc4c(N5CC6CCC(C5)N6C(=O)OC(C)OC(=O)c5cccc6ccccc56)nc(OC[C@@]56CCCN5C[C@H](F)C6)nc4c3F)c12` (stereo partly shown) gave a compound remaining of 99.5% (chemical stability; simulated intestinal fluid; 1 µM, 30 min).
For `CSCC[C@@H]1NC(=O)[C@H](C(C)C)NC(=O)[C@H](CCCNC(=N)N)NC(=O)CNC(=O)[C@@H]2CCCN2C(=O)[C@@H](NC(=O)CNC(=O)[C@H](CO)NC(=O)CNC(=O)[C@H](CO)NC(=S)Nc2ccc(C[C@H]3CN(CC(=O)O)CCN(CC(=O)O)CCN3CC(=O)O)cc2)CSSC[C@@H](C(N)=O)NC(=O)[C@@H]2CCCN2C(=O)CNC(=O)[C@H](CCC(=O)O)NC(=O)[C@H](CC(=O)O)NC(=O)[C@H](CC(=O)O)NC(=O)CNC(=O)[C@H](CC(C)C)NC(=O)[C@H](Cc2c[nH]cn2)NC(=O)[C@H](CC(C)C)NC(=O)CNC(=O)[C@H](Cc2c[nH]cn2)NC1=O` [copper-64 labelled], “blood distribution half-life” read 2.1 ± 0.2 min (dynamic PET; CD rat, myocardial infarction, left ventricular blood pool; intravenous, 18.5 MBq).
`CC[C@H](C)[C@H](NC(=O)[C@H](CCCCN)NC(=O)CNC(=O)[C@H](CC(C)C)NC(=O)[C@H](Cc1ccccc1)NC(=O)[C@H](CCCCN)NC(=O)[C@H](CO)NC(=O)[C@H](Cc1ccccc1)NC(=O)[C@H](Cc1c[nH]c2ccccc12)NC(=O)[C@H](CCC(N)=O)NC(=O)[C@@H](NC(=O)[C@H](Cc1ccccc1)NC(=O)CCCCCNC(=O)CN1CCN(CC(=O)O)CCN(CC(=O)O)CCN(CC(=O)O)CC1)C(C)C)C(=O)N[C@@H](CCC(=O)O)C(=O)N1CCC[C@H]1C(=O)N[C@@H](CC(=O)O)C(=O)N[C@H](C(=O)N[C@@H](CO)C(=O)N[C@@H](CCC(N)=O)C(=O)N[C@H](C(=O)N[C@@H](CCC(N)=O)C(=O)N[C@@H](CC(=O)O)C(=O)N1CCC[C@H]1C(=O)N[C@@H](CC(N)=O)C(=O)N[C@@H](CC(=O)O)C(=O)N[C@@H](CCC(N)=O)C(=O)N[C@@H](Cc1ccc(O)cc1)C(=O)N[C@@H](CCC(=O)O)C(=O)N1CCC[C@H]1C(=O)N[C@@H](Cc1ccccc1)C(=O)O)C(C)C)C(C)C` [copper-64 labelled] has an SUVmean of 1.31 SUV (dynamic PET; mouse, CT26 tumour, untreated, tumour; intravenous, 100 µCi/mouse, 1980 s).
Under “blood to plasma ratio”, `CC(=O)NCCCC[C@@H]1NC(=O)[C@H](Cc2c[nH]c3c(C)cccc23)NC(=O)[C@H]([C@@H](C)O)NC(=O)[C@H](CC(N)=O)NC(=O)[C@@H](NC(C)=O)C(C)(C)SSC(C)(C)[C@@H](C(=O)N[C@@H](Cc2ccc(OCCN)cc2)C(=O)N[C@@H](Cc2ccc3ccccc3c2)C(=O)NC2(C(=O)N[C@@H](CCC(=O)O)C(=O)N[C@@H](CC(N)=O)C(=O)N[C@@H](Cc3cccnc3)C(=O)N(C)CC(N)=O)CCOCC2)NC1=O` is recorded as 0.69 ± 0.07 (rat, blood; 0.013 µM, 2 h).
With `N=C(N)NCCC[C@H](NC(=O)[C@H](CCCNC(=N)N)NC(=O)[C@H](CCCNC(=N)N)NC(=O)[C@H](CCC(N)=O)NC(=O)[C@H](CCCNC(=N)N)NC(=O)[C@H](CCCNC(=N)N)NC(=O)[C@H](CCCCN)NC(=O)[C@H](CCCCN)NC(=O)[C@H](CCCNC(=N)N)NC(=O)CNC(=O)[C@H](Cc1ccc(O)cc1)NC(=O)[C@H](Cc1ccccc1)NC(=O)[C@H](Cc1ccccc1)NC(=O)[C@H](Cc1ccccc1)NC(=O)OCC1c2ccccc2-c2ccccc21)C(=O)O` the health score was 5 (C57BL/6 mice; intraperitoneal, 20 mg/kg, 2 h; direction not given).
`C=CC(=O)Nc1cccc(Cn2ncc3cnc(Nc4cnn(CCOC)c4)nc32)c1` has an MCHC of 372 ± 5.98 g/L (Sprague-Dawley rat female, blood; oral, 180 mg/kg, day 28, 28-day subacute toxicity).
`CN(C)C(=O)c1cncc(-c2cnc3[nH]cc(-c4cc(OS(=O)(=O)F)ccc4C#N)c3c2)c1` gave a hydrolytic half-life of over 1440 min (HPLC; 50 µM, 37 °C, no lysine, followed to 24 h).

Some of these lines once more:
The monocytes of `CC(C)[C@@H]1NC(=O)CNC(=O)[C@H](CC(N)=O)NC(=O)[C@H](CCCNC(=N)N)NC(=O)[C@H](Cc2ccc(O)cc2)NC(=O)[C@H](C(C)C)NC(=O)[C@@H](NC(=O)[C@@H](NC(=O)[C@H](CC(N)=O)NC(=O)[C@H](Cc2c[nH]c3ccccc23)NC(=O)[C@H](C)NC(=O)[C@H](Cc2ccccc2)NC(=O)CNC(=O)[C@H](CCCCN)NC(=O)[C@H](Cc2ccccc2)NC(=O)[C@H](Cc2ccccc2)NC(=O)[C@H](CCCCN)NC(=O)OCC2c3ccccc3-c3ccccc32)C(C)C)CSSC[C@@H](C(=O)N[C@@H](Cc2c[nH]cn2)C(=O)N[C@@H](CCCNC(=N)N)C(=O)N[C@@H](CCCNC(=N)N)C(=O)N[C@@H](C)C(=O)N[C@@H](CC(N)=O)C(N)=O)NC(=O)[C@H](C(C)C)NC(=O)[C@H](CCCNC(=N)N)NC1=O` is reported as 2.94 ± 0.16% (ICR mice, blood; intraductal mammary, 5 mg/kg, day 5).
